# Measurements of several laboratories.
# Lines come from different studies, so protocols differ.
# Organism: Acinetobacter baumannii
SMILES,test,test system,setting,scale,MIC
C[C@H]1COc2c(N3CCN(C)CC3)c(F)cc3c(=O)c(C(=O)O)cn1c23,,carbapenem-resistant clinical isolate,,,> 4 µg/mL
CC[C@H](C)[C@H](NC(=O)[C@H](CC(C)C)NC(=O)[C@H](CCCNC(=N)N)NC(=O)[C@@H](N)CCCNC(=N)N)C(=O)N[C@@H](CCCNC(=N)N)C(=O)N[C@H](C(=O)N[C@@H](CC(C)C)C(=O)N[C@H](C(=O)NCC(=O)N1CCC[C@H]1C(=O)N[C@H](C(=O)N[C@H](C(=O)N[C@@H](Cc1ccc(O)cc1)C(=O)N[C@@H](CC(C)C)C(=O)N[C@@H](Cc1ccc(O)cc1)C(=O)N[C@@H](Cc1ccccc1)C(=O)N[C@@H](CCCCN)C(=O)N[C@@H](CC(C)C)C(=O)N[C@@H](CCC(N)=O)C(=O)N[C@@H](CC(C)C)C(=O)N[C@@H](CC(C)C)C(=O)N[C@@H](CCCCN)C(=O)N[C@@H](CCCCN)C(N)=O)[C@@H](C)CC)[C@@H](C)CC)[C@@H](C)O)[C@@H](C)O,,"ATCC BAA1605, Mueller-Hinton broth",24 h,,32 µM
CCCCCC(=O)N[C@@H](CCCNC(=N)N)C(=O)N[C@@H](CCCNC(=N)N)C(=O)N[C@@H](CCCNC(=N)N)C(=O)N[C@@H](CCCNC(=N)N)C(=O)N[C@H](C(=O)N[C@@H](CC(C)C)C(=O)N[C@H](C(=O)N[C@@H](CCCNC(=N)N)C(=O)N[C@@H](CCCNC(=N)N)C(=O)N[C@H](C(=O)N[C@@H](CC(C)C)C(=O)N[C@@H](CCCNC(=N)N)C(=O)N[C@@H](CC(C)C)C(=O)N[C@@H](CCCNC(=N)N)C(=O)N[C@@H](CO)C(=O)N[C@@H](CO)C(=O)N[C@@H](C)C(=O)N[C@@H](Cc1ccc(O)cc1)C(N)=O)C(C)C)[C@@H](C)CC)[C@@H](C)CC,broth microdilution,ATCC 17978,highest value reported,,4 µM
CCCCCCCCCC(=O)N[C@@H](Cc1c[nH]c2ccccc12)C(=O)N[C@H](CC(N)=O)C(=O)N[C@@H](CC(=O)O)C(=O)N[C@@H]1C(=O)NCC(=O)N[C@@H](CCCN)C(=O)N[C@@H](CC(=O)O)C(=O)N[C@H](C)C(=O)N[C@@H](CC(=O)O)C(=O)NCC(=O)N[C@H](CO)C(=O)N[C@@H]([C@H](C)CC(=O)O)C(=O)N[C@@H](CC(=O)c2ccccc2N)C(=O)O[C@@H]1C,broth dilution,ATCC 19606,,,inactive
CC(NCCC(c1ccccc1)c1ccccc1)c1ccccc1 (stereo not drawn),growth inhibition,Tn7::dCas9 vector control,without ATc,,4 µg/mL
CC[C@H](C)[C@H](NC(=O)[C@H](CC(C)C)NC(=O)[C@H](CCCNC(=N)N)NC(=O)[C@@H](N)CCCNC(=N)N)C(=O)N[C@@H](CCCNC(=N)N)C(=O)N[C@@H](CCCCN)C(=O)N[C@@H](CC(C)C)C(=O)N[C@@H](CCCCN)C(=O)NCC(=O)N[C@@H](CC(C)C)C(=O)N[C@@H](CCCCN)C(=O)N[C@@H](CCCCN)C(=O)N[C@@H](Cc1ccc(O)cc1)C(=O)N[C@@H](CC(C)C)C(=O)N[C@@H](Cc1ccc(O)cc1)C(=O)N[C@@H](Cc1ccccc1)C(=O)N[C@@H](CCCCN)C(=O)N[C@@H](CC(C)C)C(=O)N[C@@H](CCC(N)=O)C(=O)N[C@@H](CC(C)C)C(=O)N[C@@H](CC(C)C)C(=O)N[C@@H](CCCCN)C(=O)N[C@@H](CCCCN)C(N)=O,,"KCCM 40203, Mueller-Hinton broth",24 h,,2 µM
Cc1cc(-c2cn[nH]c2-c2cccc(OCc3cccc(C#N)c3)c2)cc(C)n1,broth microdilution,ATCC 19606 Δ3 efflux-deficient,,,32 µg/mL
CC[C@H](C)[C@H](NC(=O)CNC(=O)[C@H](CC(=O)O)NC(=O)[C@H](C)NC(=O)[C@@H](NC(=O)[C@H](CC(N)=O)NC(=O)[C@H](CCCNC(=N)N)NC(=O)CNC(=O)[C@@H](NC(=O)[C@H](CCCCN)NC(=O)[C@H](CCC(=O)O)NC(=O)[C@@H](NC(=O)[C@H](CCCCN)NC(=O)[C@H](CCCCN)NC(=O)[C@H](Cc1ccccc1)NC(=O)[C@@H](NC(=O)[C@H](CCCCN)NC(=O)[C@H](Cc1c[nH]c2ccccc12)NC(=O)[C@@H](N)CCCNC(=N)N)[C@@H](C)CC)[C@@H](C)CC)C(C)C)C(C)C)C(=O)N[C@H](C(=O)N[C@@H](CCCCN)C(=O)N[C@@H](C)C(=O)NCC(=O)N1CCC[C@H]1C(=O)N[C@@H](C)C(=O)N[C@H](C(=O)N[C@@H](C)C(=O)N[C@H](C(=O)N[C@H](C(=O)NCC(=O)N[C@@H](CCC(N)=O)C(=O)N[C@@H](C)C(=O)N[C@@H](C)C(=O)N[C@H](C(=O)N[C@H](C(=O)N[C@H](C(=O)N[C@@H](CCCCN)C(N)=O)C(C)C)C(C)C)[C@@H](C)O)C(C)C)C(C)C)C(C)C)[C@@H](C)CC,,"KCCM 40203, Mueller-Hinton broth","16 h, 37 °C",growth inhibition over 99%,4 µM
CC[C@@H](C)[C@@H](N)C(=O)N[C@@H](C(=O)N[C@H](Cc1ccc(O)cc1)C(=O)N[C@@H](C(=O)N[C@H](CCN)C(=O)N[C@H](CC(C)C)C(=O)N[C@H](CO)C(=O)N[C@H](CCN)C(=O)N[C@@H](C(=O)N[C@H](CCN)C(=O)N[C@H](Cc1c[nH]cn1)C(=O)N[C@H](CCN)C(=O)N[C@H](C)C(=O)N[C@H](CCN)C(=O)N[C@H](CCN)C(N)=O)[C@H](C)CC)[C@H](C)CC)[C@H](C)CC,,"17978, colistin-sensitive, Mueller-Hinton broth",,,4 µg/mL
C[C@@H](O)[C@H]1C(=O)N2C(C(=O)O)=C(SCCN=CN)C[C@H]12,,"CCARM 12005 carbapenem-resistant, Mueller-Hinton broth","16 h, 37 °C",,128 µM
CC[C@H](C)[C@H](NC(=O)[C@H](CCCCN)NC(=O)[C@H](CCCCN)NC(=O)[C@H](Cc1ccccc1)NC(=O)[C@@H](NC(=O)[C@@H](NC(=O)[C@H](CCCNC(=N)N)NC(=O)[C@H](Cc1ccccc1)NC(=O)[C@@H](NC(=O)[C@H](CCCCN)NC(=O)[C@H](CCCCN)NC(=O)[C@@H](N)CCSC)[C@@H](C)CC)C(C)C)[C@@H](C)CC)C(=O)N[C@@H](CC(C)C)C(=O)N[C@@H](CCCCN)C(=O)N[C@@H](CCCNC(=N)N)C(=O)N[C@@H](CC(C)C)C(=O)N[C@H](C(=O)N[C@H](C(=O)O)C(C)C)[C@@H](C)CC,,ATCC 19606,16 to 18 h,,8 µg/mL
CC[C@H](C)[C@H](NC(=O)CNC(=O)[C@H](CC(=O)O)NC(=O)[C@H](CCCNC(=N)N)NC(=O)[C@@H](NC(=O)[C@H](CC(N)=O)NC(=O)[C@H](CCCNC(=N)N)NC(=O)CNC(=O)[C@@H](NC(=O)[C@H](CCCCN)NC(=O)[C@H](CCC(=O)O)NC(=O)[C@@H](NC(=O)[C@H](CCCCN)NC(=O)[C@H](CCCCN)NC(=O)[C@H](Cc1ccccc1)NC(=O)[C@@H](NC(=O)[C@H](CCC(=O)O)NC(=O)[C@H](Cc1c[nH]c2ccccc12)NC(=O)[C@@H](N)CCCNC(=N)N)[C@@H](C)CC)[C@@H](C)CC)C(C)C)C(C)C)C(=O)N[C@H](C(=O)N[C@@H](CCCCN)C(=O)N[C@@H](C)C(=O)NCC(=O)N1CCC[C@H]1C(=O)N[C@@H](C)C(=O)N[C@H](C(=O)N[C@@H](C)C(=O)N[C@H](C(=O)N[C@H](C(=O)NCC(=O)N[C@@H](CCC(N)=O)C(=O)N[C@@H](C)C(=O)N[C@@H](C)C(=O)N[C@H](C(=O)N[C@H](C(=O)N[C@H](C(=O)N[C@@H](CCCCN)C(N)=O)C(C)C)C(C)C)[C@@H](C)O)C(C)C)C(C)C)C(C)C)[C@@H](C)CC,,"KCCM 40203, Mueller-Hinton broth","16 h, 37 °C",growth inhibition over 99%,> 64 µM
CC(=O)N[C@@H](CCCCN)C(=O)N[C@@H](CCCCN)C(=O)N[C@@H](C)C(=O)N[C@@H](CC(C)C)C(=O)N[C@@H](CCCCN)C(=O)N[C@@H](CC(C)C)C(=O)N[C@@H](C)C(=O)N[C@@H](CCCCN)C(=O)N[C@@H](CCCCN)C(=O)N1CCC[C@H]1C(=O)N[C@@H](CC(C)C)C(=O)N[C@@H](CCCCN)C(=O)N[C@@H](CC(C)C)C(=O)N[C@@H](CC(C)C)C(=O)N[C@@H](CCCCN)C(N)=O,broth microdilution,ATCC 17978,"18 h, 37 °C, compound alone",,> 80 µM
CC[C@H](C)[C@H](NC(=O)CNC(=O)[C@H](CC(=O)O)NC(=O)[C@H](CCCNC(=N)N)NC(=O)[C@@H](NC(=O)[C@H](CC(N)=O)NC(=O)[C@H](C)NC(=O)CNC(=O)[C@@H](NC(=O)[C@H](CCCCN)NC(=O)[C@H](CCC(=O)O)NC(=O)[C@@H](NC(=O)[C@H](CCCCN)NC(=O)[C@H](CCCCN)NC(=O)[C@H](Cc1ccccc1)NC(=O)[C@@H](NC(=O)[C@H](CCCCN)NC(=O)[C@H](Cc1c[nH]c2ccccc12)NC(=O)[C@@H](N)CCCNC(=N)N)[C@@H](C)CC)[C@@H](C)CC)C(C)C)C(C)C)C(=O)N[C@H](C(=O)N[C@@H](CCCCN)C(=O)N[C@@H](C)C(=O)NCC(=O)N1CCC[C@H]1C(=O)N[C@@H](C)C(=O)N[C@H](C(=O)N[C@@H](C)C(=O)N[C@H](C(=O)N[C@H](C(=O)NCC(=O)N[C@@H](CCC(N)=O)C(=O)N[C@@H](C)C(=O)N[C@@H](C)C(=O)N[C@H](C(=O)N[C@H](C(=O)N[C@H](C(=O)N[C@@H](CCCCN)C(N)=O)C(C)C)C(C)C)[C@@H](C)O)C(C)C)C(C)C)C(C)C)[C@@H](C)CC,,"KCCM 40203, Mueller-Hinton broth","16 h, 37 °C",growth inhibition over 99%,4 µM
CC[C@H](C)[C@H](NC(=O)[C@H](CC(C)C)NC(=O)[C@H](CCCNC(=N)N)NC(=O)[C@@H](N)CCCNC(=N)N)C(=O)N[C@@H](CCCNC(=N)N)C(=O)N[C@H](C(=O)N[C@@H](CC(=O)O)C(=O)N[C@H](C(=O)NCC(=O)N1CCC[C@H]1C(=O)N[C@H](C(=O)N[C@H](C(=O)N[C@@H](Cc1ccc(O)cc1)C(=O)N[C@@H](CC(=O)O)C(=O)N[C@@H](Cc1ccc(O)cc1)C(=O)N[C@@H](Cc1ccccc1)C(=O)N[C@@H](CCCCN)C(=O)N[C@@H](CC(=O)O)C(=O)N[C@@H](CCC(N)=O)C(=O)N[C@@H](CC(C)C)C(=O)N[C@@H](CC(C)C)C(=O)N[C@@H](CCCCN)C(=O)N[C@@H](CCCCN)C(N)=O)[C@@H](C)CC)[C@@H](C)CC)[C@@H](C)O)[C@@H](C)O,,"ATCC BAA1605, Mueller-Hinton broth",24 h,,64 µM
